Experimental data of several laboratories.
A part holds a random share of what one study measured. Values joined by “and” are separate records of one study, mostly repeats; a detail may differ. Positions count from the first letter of the parent shown.

Sample 1
Change: G148S
Target: ABI1, truncated, D143A, DHFR fusion (Arabidopsis thaliana)
Technique: DHFR PCA, deep sequencing
Matrix: yeast
Notes: methotrexate growth selection, single substitutions
Reference: wild-type fitted maximum
Reading: higher = stronger binding
Quantity: relative binding score
Parent: PYL1, truncated, DHFR fusion (Arabidopsis thaliana); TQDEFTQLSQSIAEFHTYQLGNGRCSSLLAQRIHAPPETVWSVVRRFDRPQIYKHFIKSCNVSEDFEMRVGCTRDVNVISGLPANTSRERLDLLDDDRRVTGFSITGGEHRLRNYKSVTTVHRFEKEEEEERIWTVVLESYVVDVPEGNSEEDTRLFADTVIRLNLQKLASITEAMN; partner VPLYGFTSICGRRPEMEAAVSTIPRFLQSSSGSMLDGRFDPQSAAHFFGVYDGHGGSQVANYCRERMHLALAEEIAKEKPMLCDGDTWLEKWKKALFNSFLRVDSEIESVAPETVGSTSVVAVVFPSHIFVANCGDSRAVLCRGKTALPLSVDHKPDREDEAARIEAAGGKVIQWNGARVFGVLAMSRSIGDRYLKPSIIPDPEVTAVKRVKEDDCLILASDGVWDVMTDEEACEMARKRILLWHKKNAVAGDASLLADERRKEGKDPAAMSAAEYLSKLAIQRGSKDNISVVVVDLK
added: (+)-ABA 710 µM: 92.9%
added: (+)-ABA 17 µM: 54%
added: (+)-ABA 200 µM: 83.4%
added: (+)-ABA 2500 µM: 90.3%
added: (+)-ABA 0.11 µM: -4.27%
added: (+)-ABA 1.4 µM: 2.39%

Sample 2
Target: Sal-like protein 4, full length isoform B (SALL4, Homo sapiens, UniProt Q9UJQ4-2, residues 1-616)
Technique: universal PBM
Form: double-stranded DNA, one strand shown
Matrix: in vitro
Concentration: not given
Notes: 8-mer, flanks averaged, mean of replicates
Reading: higher = stronger binding
Quantity: E-score
Construct (chain): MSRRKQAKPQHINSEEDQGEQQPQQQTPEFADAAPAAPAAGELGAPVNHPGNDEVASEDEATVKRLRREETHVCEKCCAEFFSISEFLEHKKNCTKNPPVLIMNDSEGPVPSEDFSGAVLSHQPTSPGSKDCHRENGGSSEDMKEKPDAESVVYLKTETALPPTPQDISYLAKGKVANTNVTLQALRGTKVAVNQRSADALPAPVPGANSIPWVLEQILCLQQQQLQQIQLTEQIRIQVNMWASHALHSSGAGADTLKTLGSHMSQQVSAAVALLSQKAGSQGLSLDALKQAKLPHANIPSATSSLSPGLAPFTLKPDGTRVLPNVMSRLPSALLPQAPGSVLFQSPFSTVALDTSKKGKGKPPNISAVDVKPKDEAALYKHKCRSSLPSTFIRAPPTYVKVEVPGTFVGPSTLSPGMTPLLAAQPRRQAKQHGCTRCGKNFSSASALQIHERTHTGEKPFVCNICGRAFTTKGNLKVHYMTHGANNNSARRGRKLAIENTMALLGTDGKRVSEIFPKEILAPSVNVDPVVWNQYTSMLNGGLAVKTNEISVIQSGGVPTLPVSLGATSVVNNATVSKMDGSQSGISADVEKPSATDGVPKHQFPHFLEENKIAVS
CGCATTAG: -0.137
CTCAGTAA: 0.0413
GCAGCGTA: -0.0915
CATTTATC: 0.268
GATGTGGC: -0.195
AGACGCTG: -0.162
TATTTTGA: 0.285
AGGCCGGA: -0.338

Sample 3
Target: POU domain, class 6, transcription factor 1, POU and homeodomain (POU6F1, Homo sapiens, UniProt Q14863, residues 311-611)
Technique: protein-binding microarray
Form: hairpin DNA
Matrix: in vitro
Concentration: not given
Notes: whole hairpin DNA, median over replicate spots
Reference: not given
Reading: higher = stronger binding
Quantity: median fluorescence
Constant ends, left off below: GAGGCC … GGCCTCACACTCTT
Target sequence (chain): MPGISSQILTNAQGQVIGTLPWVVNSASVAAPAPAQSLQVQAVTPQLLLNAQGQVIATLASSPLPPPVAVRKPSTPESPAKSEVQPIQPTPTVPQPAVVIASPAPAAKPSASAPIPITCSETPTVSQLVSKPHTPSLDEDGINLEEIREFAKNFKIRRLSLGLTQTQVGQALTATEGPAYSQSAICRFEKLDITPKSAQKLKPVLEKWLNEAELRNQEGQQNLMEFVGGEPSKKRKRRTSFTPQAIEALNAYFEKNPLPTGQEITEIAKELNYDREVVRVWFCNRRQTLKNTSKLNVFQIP
GTAATGAGGTGCCTCCTGGCACCTCATTAC: 1460 a.u.
ATAATTCGGTGCCTCCTGGCACCGAATTAT (5mC at 13 29): 548 a.u.
CGAATTAGGTGCCTCCTGGCACCTAATTCG (5mC at 7 35): 419 a.u.
ACGATGAGGTGCCTCCTGGCACCTCATCGT (5mC at 8 34): 333 a.u.
ATCATTAGGTGCCTCCTGGCACCTAATGAT: 630 a.u.
CGAATGAGGTGCCTCCTGGCACCTCATTCG (5mC at 7 35): 389 a.u.
ATAATTAGGGGCCTCCTGGCCCCTAATTAT: 1460 a.u.
GTAATTAGGTGCCTCCTGGCACCTAATTAC (5mC at 36): 923 a.u.

Single results of other studies
O=C(O)c1cc(-c2ccc(C3CCNCC3)cc2)c2ccc(-c3ccc(C(F)(F)F)cc3)cc2c1 — viability (normal organoid sample F; CellTiter-Glo; human, normal-adjacent epithelium; 1 µM; reference: DMSO): 102% and 81.7%

Excerpt of the above (sample 3):
GTAATGAGGTGCCTCCTGGCACCTCATTAC: 1460 a.u.
CGAATTAGGTGCCTCCTGGCACCTAATTCG (5mC at 7 35): 419 a.u.
ATAATTAGGGGCCTCCTGGCCCCTAATTAT: 1460 a.u.
CGAATGAGGTGCCTCCTGGCACCTCATTCG (5mC at 7 35): 389 a.u.
